Measured values collected from several papers.
Values joined by “and” are separate records of one study, mostly repeats; a detail may differ. Numbers after ± are the reported error.
PFF0160c E182D: Dihydroorotate dehydrogenase (quinone), mitochondrial (PFF0160c, Plasmodium falciparum, UniProt Q08210, E182D)
ACHE: Acetylcholinesterase (ACHE, Homo sapiens, UniProt P22303)
Aryl hydrocarbon receptor: Aryl hydrocarbon receptor (Danio rerio, UniProt Q9YGV3)
Neuronal acetylcholine receptor; alpha9/alpha10: Neuronal acetylcholine receptor; alpha9/alpha10 (Homo sapiens, UniProt Q9GZZ6+Q9UGM1)

The IC50 ratio of Cc1noc(-c2cccs2)c1C(=O)NC(C)c1cccc2ccccc12 (stereo not drawn) is reported as 4.6 (PFF0160c E182D; enzyme activity, DCIP colorimetric; reference: E182D mutant over wild type).
For COc1cc(N)c(Cl)cc1C(=O)NC1CN2CCC1CC2 (stereo not drawn), “log2 fold change” read 0.007 (MRGPRD (Homo sapiens, UniProt Q8TDS7); β-arrestin recruitment, TANGO luminescence; concentration not given; reference: basal luminescence).
For CNc1cc(OC)c(C(=O)NC2CCN(Cc3ccccc3)C2C)cc1Cl (stereo not drawn), activity class read “inactive” (ACHE; biochemical; concentration not given).
For O=C(Nc1cccnn1)N1CCC(=Cc2cccc(Oc3ccc(C(F)(F)F)cn3)c2)CC1, the inhibition was 0% (PHKG2 (Homo sapiens, UniProt P15735); kinase activity, inhibitor; 10 µM, human).
Nc1ncnc2c1nc(Br)n2C1OC2COP(O)(=S)OC2C1O (single isomer, unassigned) — result for “relative binding affinity”: 0.0027 (anti-cAMP antibody; antibody binding, competitive cAMP EIA; concentration not given, acetylated samples; reference: EC50 cAMP over EC50 cpd, higher = stronger binding).
O=C(O)C(F)(F)C(F)(F)C(F)(F)C(F)(F)C(F)(F)C(F)(F)C(F)(F)F: “linear uptake duration” 1 min (SLCO2B1 (Homo sapiens, UniProt O94956); substrate; CHO stably expressing; 10 µM).
With COc1ccc(N2C(=O)N(c3c(C)cccc3Cl)Cc3cnc(Nc4ccc(C5CCN(C)CC5)cc4OC)nc32)nc1 the inhibition was 7.43% (MAP3K3 (Homo sapiens, UniProt Q99759); kinase activity, inhibitor; 0.5 µM, MEKK3).
CCC(c1ccccc1)c1nn2c(-c3cccs3)nnc2s1 (stereo not drawn) has an IC50 ratio of 1.1 (PFF0160c E182D; enzyme activity, DCIP colorimetric; reference: E182D mutant over wild type).
COC(=O)[C@@]1(O)C[C@H]2O[C@]1(C)n1c3ccccc3c3c4c(c5c6ccccc6n2c5c31)C(=O)NC4 gave a kinase activity of 101% and 125% and 99.8% (MAPK3 (Homo sapiens, UniProt P27361); ADP-Glo; 24.6 µM, with: MBP substrate).
Oc1ccc2ccc3cccc4ccc1c2c34 has a fold change of 1.89 (Aryl hydrocarbon receptor; reporter gene, agonist, luciferase reporter; ZF-4; 30000 µM; reference: vehicle control).
For CC[C@@H](C)[C@@H](NC(=O)[C@@H](Cc1ccc(O)cc1)NC(=O)[C@H]1CCCN1C(=O)[C@@H](CCCNC(=N)N)NC(=O)[C@H](N)Cc1c[nH]cn1)C(=O)N[C@H](C)C(=O)N[C@H](Cc1c[nH]cn1)C(=O)N[C@H](CCCNC(=N)N)C(=O)N[C@H](CCCCNC(=O)c1cccc(S(=O)(=O)F)c1)C(=O)N[C@H](Cc1ccc(O)cc1)C(=O)N[C@H](CO)C(=O)N[C@H](Cc1ccccc1)C(N)=O, “surface TFRC expression” read 0.375 (Transferrin receptor protein 1 (Tfrc, Mus musculus, UniProt Q62351); flow cytometry; DC2.4; 24 h, pH 6, replicate 3, unit not given; reference: 0 h).
CCC[N+]1(C)CCN(c2ccccc2)CC1.[I-] — result for “Imax relative to ACh”: 0.61 ± 0.01 (Neuronal acetylcholine receptor; alpha9/alpha10; current, agonist, two-electrode voltage clamp; Xenopus oocytes coexpressing rapsyn; α9 coexpressed with α10; reference: ACh).
c1ccc2c3c(ccc2c1)-c1cccc2cccc-3c12 gave a fold change of 16.8 (Aryl hydrocarbon receptor; reporter gene, agonist, luciferase reporter; ZF-4; 1111.11 µM; reference: vehicle control).
For CC(C(O)c1ccccc1)N(C)CCOC(c1ccccc1)c1ccccc1 (stereo not drawn), activity class read “inactive” (ACHE; biochemical; concentration not given).
CN(CC(=O)O)C(=N)NP(=O)(O)O has a Km of 90 ± 10 µM (CKMT1A (Homo sapiens, UniProt P12532, D359N); substrate, Kinase-Glo luminescence; pH 7.0, reverse reaction, D321N mutant, with: second substrate in excess).
With Cc1nc2ccccc2n1[C@@H]1C[C@H]2CC[C@@H](C1)N2Cc1nccn1-c1ccccc1.O=C(O)C(F)(F)F the IC50 ratio was 10.4 (PFF0160c E182D; enzyme activity, DCIP colorimetric; reference: E182D mutant over wild type).
CN1CCc2[nH]c3ccccc3c2CC1.O=C(O)/C=C/C(=O)O — result for “recovery time constant”: 9.6 ± 0.2 s (Neuronal acetylcholine receptor; alpha9/alpha10; ion current, inhibitor, two-electrode voltage clamp; Xenopus laevis oocytes; 3 µM, human receptor, with: acetylcholine 6 µM).
CN(C(=O)n1cnc(-c2ccc[n+]([O-])c2)c1)C1CCCCC1 has a fold change of -2.6 (androgen-induced gene 1 protein (Rattus norvegicus, UniProt F7EZV5); enzyme activity, ABPP; rat, brain; oral, 100 mg/kg/day, 7 days; reference: vehicle).
COc1cc(Nc2ncc(F)c(Nc3ccc4c(n3)NC(=O)C(C)(C)O4)n2)cc(OC)c1OC has an inhibition of 95% (RPS6KA5 (Homo sapiens, UniProt O75582); kinase binding, KINOMEscan; 10 µM, kinase domain 2 C-terminal).
For CC(=O)N[C@H](C(=O)N1C[C@H](O)C[C@H]1C(=O)NCc1ccc(-c2scnc2C)cc1)C(C)(C)SCCCCCCNC(=O)C[C@@H]1N=C(c2ccc(Cl)cc2)c2c(sc(C)c2C)-n2c(C)nnc21, the −TΔS was 5 ± 1 kcal/mol (Bromodomain-containing protein 2, BD1 (BRD2, Homo sapiens, UniProt P25440, K107A/Q101K/V106E); ITC; 25 °C, BD1 KEA mutant, binary).
With Clc1cc2c(cc1Cl)Oc1cc(Cl)c(Cl)cc1O2 the EC80 was 0.0105 ± 0.00923 µM (Uncharacterized protein (Takifugu rubripes, UniProt Q4JHL3); reporter gene, agonist, dual-luciferase; COS-7; 24 h).
The Ki ratio of O=C(O)COP(=O)(O)O is reported as 11 (TPI1 (Saccharomyces cerevisiae, UniProt P00942, Y208T); enzyme activity, competitive inhibitor, GPDH/NADH-coupled; pH 4.9, 25 °C, ionic strength 0.1 NaCl, with: glyceraldehyde 3-phosphate substrate; reference: mutant over wild type).
For CN1CCN(c2cc(-c3ccncc3)c(-c3ccc4ccccc4c3)nn2)CC1, the activation was -1% (GALR1 (Homo sapiens, UniProt P47211); agonist, FLIPR; 12.5 µM).
For COc1ncccc1-c1cnn2ccc(N3CCN(C(=O)OC(C)C)CC3)nc12, the remaining binding was 96% (MINK1 (Homo sapiens, UniProt Q8N4C8); KINOMEscan binding; 1 µM; reference: untreated control).
C[N+](C)(C)[C@@H](Cc1c[nH]c(=S)[nH]1)C(=O)[O-] gave a ΔH of -3.92 ± 0.674 kcal/mol (Ergothioneine transport permease/ergothioneine binding protein EgtU, substrate-binding domain (egtU, Helicobacter pylori, UniProt B5Z7I3); ITC; 30 °C, substrate-binding domain).
Under “normalised MST signal”, O=C(O)Cc1c[nH]cn1 is recorded as 0.815 (SLC6A6 (Homo sapiens, UniProt P31641, Y138A); binding, microscale thermophoresis; 1 mM, room temperature, with: 50 nM labelled protein; higher = more binding).
CC(C)(C)NC[C@H](O)COc1nsnc1N1CCOCC1: “increase in binding signal” greater than 50% (Gag polyprotein, nucleocapsid protein p7 (gag, Human immunodeficiency virus type 1 group M subtype B, UniProt P04591); AlphaScreen; 45 µM, with: U3 RNA; reference: DMSO).
The KD ratio of Cc1ccnc2c1NC(=O)c1cccnc1N2C1CC1 is reported as 3.7 fold (pol, reverse transcriptase (Feline immunodeficiency virus, UniProt P16088); SPR; reference: FIV RT over HIV-1 RT).
The remaining binding of C[C@H]1CN(c2n[nH]c3nc(N[C@H]4CC[C@H](NS(=O)(=O)CCC(F)(F)F)CC4)ncc23)CCO1 is reported as 1.13 (Isoleucine--tRNA ligase, cytoplasmic (Homo sapiens, UniProt P41252); Kinobeads competition, refers to: IARS; 20 µM, unit not given; reference: vehicle).
Clc1ccc(-c2cc(Cl)ccc2Cl)cc1 gave an IC25 of 16 µM (AHR (Homo sapiens, UniProt P35869); reporter gene, antagonist; AZ-AHR cells; 24 h, with: TCDD 4.5 nM).
O=C(O)CCC(=O)C(=O)O has a Km of 38 ± 8 µM (HIF1AN (Homo sapiens, UniProt Q9NWT6, Q147A); cosubstrate; pH 7.00, 37.0 °C, mutant Q147A, with: CTAD peptide 100 µM, cosubstrate 217 µM).
With [2H]c1c([2H])c([C@]2([2H])CCCN2C(=O)C(C)(C)Oc2ccc3cn[nH]c3c2)c([2H])c([2H])c1C([2H])([2H])[2H] the remaining binding was 72% (RIOK2 (Homo sapiens, UniProt Q9BVS4); KINOMEscan; 1 µM; reference: DMSO control).
The IC50 ratio of Cc1nc(Nc2ccc(S(F)(F)(F)(F)F)cc2)c2c(C)noc2n1 is reported as 7.4 (PFF0160c E182D; enzyme activity, DCIP colorimetric; reference: E182D mutant over wild type).
For O=C(c1ccc(Cl)cc1)N1CCN2C(=O)N(OC(=O)N3CCOc4ccccc43)C(=O)C2C1 (stereo not drawn), the median ratio was 1.17 (Phosphatidylserine lipase ABHD16A (Homo sapiens, UniProt O95870); enzyme activity, inhibitor, MS-based ABPP; SW-620 in situ; 10 µM, 2 h, 37 °C; reference: compound over DMSO, lower = stronger inhibition).
O=C(CNCC1CCCCC1)Nc1cc(C(F)(F)F)ccc1Cl gave an IC50 ratio of 9.2 (PFF0160c E182D; enzyme activity, DCIP colorimetric; reference: E182D mutant over wild type).
With OC1Cc2ccccc2CC1N1CCC2(CC1)C(Br)=Cc1ccccc12 (racemic) the selectivity ratio was 20 (Vesicular acetylcholine transporter (Rattus norvegicus, UniProt Q62666); reference: Ki sigma1 over Ki VAChT).
